Results of several laboratories.
Each numbered part is a random draw from the data of one study; scales do not carry over between parts.
Sequence of UniProt P22612 (whole entry, looked up): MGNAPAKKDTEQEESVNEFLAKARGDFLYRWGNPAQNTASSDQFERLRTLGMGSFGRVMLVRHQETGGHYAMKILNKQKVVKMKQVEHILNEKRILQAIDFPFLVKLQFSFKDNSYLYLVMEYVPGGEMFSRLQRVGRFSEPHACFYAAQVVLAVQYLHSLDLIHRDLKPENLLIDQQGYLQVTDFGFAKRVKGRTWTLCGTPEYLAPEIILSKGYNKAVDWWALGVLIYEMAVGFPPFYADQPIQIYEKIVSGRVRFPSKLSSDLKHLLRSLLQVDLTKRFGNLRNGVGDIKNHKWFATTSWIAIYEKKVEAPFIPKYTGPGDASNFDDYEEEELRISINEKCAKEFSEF
Sequence of UniProt Q9H3Y6 (whole entry, looked up): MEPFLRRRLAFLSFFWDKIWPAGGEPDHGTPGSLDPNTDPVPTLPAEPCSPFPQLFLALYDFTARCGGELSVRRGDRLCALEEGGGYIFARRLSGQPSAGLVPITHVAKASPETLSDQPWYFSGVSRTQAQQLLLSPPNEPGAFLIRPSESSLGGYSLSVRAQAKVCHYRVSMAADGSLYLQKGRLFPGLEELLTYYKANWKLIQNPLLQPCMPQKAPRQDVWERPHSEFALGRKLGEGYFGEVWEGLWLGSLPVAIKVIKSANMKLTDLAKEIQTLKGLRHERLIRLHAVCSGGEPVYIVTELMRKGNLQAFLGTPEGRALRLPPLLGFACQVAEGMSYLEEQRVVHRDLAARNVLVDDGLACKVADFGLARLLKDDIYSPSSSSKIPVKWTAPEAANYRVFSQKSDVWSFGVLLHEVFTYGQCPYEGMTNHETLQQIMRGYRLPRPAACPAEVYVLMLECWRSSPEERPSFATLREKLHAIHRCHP
Sequence of UniProt Q8NE63 (whole entry, looked up): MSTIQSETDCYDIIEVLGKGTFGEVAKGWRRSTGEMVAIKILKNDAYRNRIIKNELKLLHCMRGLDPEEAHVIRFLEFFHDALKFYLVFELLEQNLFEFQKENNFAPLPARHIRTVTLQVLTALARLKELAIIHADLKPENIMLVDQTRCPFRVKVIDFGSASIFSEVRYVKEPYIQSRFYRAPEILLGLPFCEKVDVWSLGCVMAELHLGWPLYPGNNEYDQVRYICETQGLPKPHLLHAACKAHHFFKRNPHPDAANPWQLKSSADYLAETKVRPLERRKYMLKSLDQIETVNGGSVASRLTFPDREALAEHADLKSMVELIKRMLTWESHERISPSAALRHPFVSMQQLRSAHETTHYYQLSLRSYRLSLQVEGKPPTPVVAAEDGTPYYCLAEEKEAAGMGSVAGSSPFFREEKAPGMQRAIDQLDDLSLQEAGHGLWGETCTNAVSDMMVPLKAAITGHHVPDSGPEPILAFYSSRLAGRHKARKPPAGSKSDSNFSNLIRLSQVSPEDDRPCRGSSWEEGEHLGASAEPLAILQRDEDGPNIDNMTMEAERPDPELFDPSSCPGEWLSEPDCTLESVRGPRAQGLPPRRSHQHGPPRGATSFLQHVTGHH
Sequence of UniProt O75582 (whole entry, looked up): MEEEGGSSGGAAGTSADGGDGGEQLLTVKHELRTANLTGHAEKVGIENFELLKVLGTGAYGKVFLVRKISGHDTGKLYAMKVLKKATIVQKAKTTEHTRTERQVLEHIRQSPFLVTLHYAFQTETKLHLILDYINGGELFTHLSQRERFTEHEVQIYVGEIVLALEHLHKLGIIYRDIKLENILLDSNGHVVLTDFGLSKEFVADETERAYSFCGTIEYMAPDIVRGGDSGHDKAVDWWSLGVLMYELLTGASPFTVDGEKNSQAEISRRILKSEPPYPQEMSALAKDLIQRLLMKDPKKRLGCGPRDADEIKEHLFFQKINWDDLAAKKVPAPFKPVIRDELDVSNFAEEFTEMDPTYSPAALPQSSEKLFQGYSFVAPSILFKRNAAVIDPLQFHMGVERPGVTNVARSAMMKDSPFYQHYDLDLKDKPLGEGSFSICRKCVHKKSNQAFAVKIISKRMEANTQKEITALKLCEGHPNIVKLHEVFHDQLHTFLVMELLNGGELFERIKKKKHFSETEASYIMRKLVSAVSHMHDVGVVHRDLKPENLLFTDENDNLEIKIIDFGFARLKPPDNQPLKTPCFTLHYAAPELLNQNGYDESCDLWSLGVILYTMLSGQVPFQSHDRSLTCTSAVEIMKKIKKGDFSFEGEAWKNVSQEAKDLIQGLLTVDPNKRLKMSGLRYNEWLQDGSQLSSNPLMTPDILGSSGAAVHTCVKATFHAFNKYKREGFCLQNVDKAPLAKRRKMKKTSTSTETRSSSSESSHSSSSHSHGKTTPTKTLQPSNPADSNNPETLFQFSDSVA
Sequence of UniProt Q9H2X6 (whole entry, looked up): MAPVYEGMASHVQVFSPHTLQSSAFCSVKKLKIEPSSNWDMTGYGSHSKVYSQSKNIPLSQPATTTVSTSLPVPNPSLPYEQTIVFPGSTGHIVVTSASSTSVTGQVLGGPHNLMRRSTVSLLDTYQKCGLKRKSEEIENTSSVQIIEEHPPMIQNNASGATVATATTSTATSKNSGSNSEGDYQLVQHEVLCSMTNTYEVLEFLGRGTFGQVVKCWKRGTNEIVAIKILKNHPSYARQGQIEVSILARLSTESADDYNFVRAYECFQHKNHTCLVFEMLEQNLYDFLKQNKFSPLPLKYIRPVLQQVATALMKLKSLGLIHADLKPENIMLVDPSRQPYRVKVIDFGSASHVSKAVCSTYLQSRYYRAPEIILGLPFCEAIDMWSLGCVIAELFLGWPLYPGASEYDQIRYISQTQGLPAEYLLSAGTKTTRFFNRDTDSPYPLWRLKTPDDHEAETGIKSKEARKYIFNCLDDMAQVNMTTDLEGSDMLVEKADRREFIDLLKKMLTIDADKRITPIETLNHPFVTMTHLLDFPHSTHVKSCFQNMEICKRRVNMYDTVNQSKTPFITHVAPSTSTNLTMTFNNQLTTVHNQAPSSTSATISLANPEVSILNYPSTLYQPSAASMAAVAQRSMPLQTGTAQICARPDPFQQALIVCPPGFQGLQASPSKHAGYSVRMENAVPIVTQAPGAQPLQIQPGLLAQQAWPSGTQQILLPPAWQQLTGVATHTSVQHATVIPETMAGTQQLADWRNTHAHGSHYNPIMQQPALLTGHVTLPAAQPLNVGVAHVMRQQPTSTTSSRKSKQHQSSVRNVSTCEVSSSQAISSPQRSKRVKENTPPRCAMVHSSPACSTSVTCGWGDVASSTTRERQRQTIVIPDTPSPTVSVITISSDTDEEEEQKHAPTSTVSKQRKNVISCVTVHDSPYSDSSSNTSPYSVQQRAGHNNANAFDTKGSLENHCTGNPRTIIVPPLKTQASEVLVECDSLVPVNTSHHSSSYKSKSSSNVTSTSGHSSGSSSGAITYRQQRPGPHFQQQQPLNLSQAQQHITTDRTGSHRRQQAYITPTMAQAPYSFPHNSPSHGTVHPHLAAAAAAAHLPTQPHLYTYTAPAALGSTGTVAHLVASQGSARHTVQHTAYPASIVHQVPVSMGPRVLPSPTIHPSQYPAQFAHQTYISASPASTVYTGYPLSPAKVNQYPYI
Sequence of UniProt Q16816 (whole entry, looked up): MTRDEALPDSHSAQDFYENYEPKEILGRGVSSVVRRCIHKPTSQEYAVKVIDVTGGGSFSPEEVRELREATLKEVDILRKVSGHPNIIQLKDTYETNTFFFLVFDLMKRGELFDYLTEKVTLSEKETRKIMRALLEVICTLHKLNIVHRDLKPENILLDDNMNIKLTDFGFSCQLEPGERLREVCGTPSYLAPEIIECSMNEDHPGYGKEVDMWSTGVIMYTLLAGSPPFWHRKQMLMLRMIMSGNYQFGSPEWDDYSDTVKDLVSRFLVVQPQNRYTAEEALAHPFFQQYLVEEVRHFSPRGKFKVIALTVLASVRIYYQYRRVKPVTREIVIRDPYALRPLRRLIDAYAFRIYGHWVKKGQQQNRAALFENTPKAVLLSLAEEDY
Sequence of UniProt Q00534 (whole entry, looked up): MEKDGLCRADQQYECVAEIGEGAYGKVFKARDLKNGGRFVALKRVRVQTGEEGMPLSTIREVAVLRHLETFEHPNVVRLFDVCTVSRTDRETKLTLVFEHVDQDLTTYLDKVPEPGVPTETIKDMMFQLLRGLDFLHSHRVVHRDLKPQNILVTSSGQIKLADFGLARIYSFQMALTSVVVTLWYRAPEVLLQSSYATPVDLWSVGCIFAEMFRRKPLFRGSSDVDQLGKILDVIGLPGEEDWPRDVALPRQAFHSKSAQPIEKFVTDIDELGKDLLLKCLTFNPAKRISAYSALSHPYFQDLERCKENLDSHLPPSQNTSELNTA

Series 1
Cell line: HEK-293T-ACE2-TMPRSS2
Technique: cell count
Concentration: 10 µM
Compound | viability [%]
C=CCNc1nnc(Sc2ncnc3ccsc23)s1 | 96
O=C(Cn1cc2ccccc2n1)N1CCCC(Nc2cccc(F)c2)C1 (centres unmarked) | 108
Cc1nn(C)c2c(=O)n(C(C)C(=O)Nc3ccc(N4CCOCC4)cc3)ccc12 (centres unmarked) | 98
CC(C)Oc1ccc(C(=O)Nc2nc3c(s2)CN(Cc2ccccc2)CC3)cc1 | 73

Series 2
Cell line: A-375
Concentration: 100 µM
Time: 18 h
Structure (SMILES) | viability
O=P1(NCCCl)OCCCN1CCCl (centres unmarked) | 91.8%
Clc1ccc(C(OCCN2CCCCC2)c2ccccc2)cc1 (centres unmarked) | 8.66%
C=C1C[C@@H]2[C@H](CC[C@]3(C)C(=O)CC[C@@H]23)[C@@]2(C)C=CC(=O)C=C12 | 101%
CC(C)c1cccc(C(C)C)c1O | 14.4%

Series 3
SMILES: O=C1NC(=O)c2c1c1c3ccccc3n3c1c1c2c2ccccc2n1[C@H]1CC[C@@H]3O1
Effect on: enzyme activity
Mode: inhibitor
Concentration: 0.5 µM
Relative to: control
target | remaining activity [%]
Tyrosine-protein kinase Srms (SRMS, Homo sapiens, UniProt Q9H3Y6) | 105
Cyclin-dependent kinase 6, with cyclin D3 (CDK6, Homo sapiens, UniProt Q00534) | 19.9
Phosphorylase b kinase gamma catalytic chain, skeletal muscle/heart isoform (PHKG1, Homo sapiens, UniProt Q16816) | 2.75
Homeodomain-interacting protein kinase 2 (HIPK2, Homo sapiens, UniProt Q9H2X6) | 32.6
cAMP-dependent protein kinase catalytic subunit gamma (PRKACG, Homo sapiens, UniProt P22612) | 39.8
Ribosomal protein S6 kinase alpha-5 (RPS6KA5, Homo sapiens, UniProt O75582) | 9.88
Homeodomain-interacting protein kinase 4 (HIPK4, Homo sapiens, UniProt Q8NE63) | 29.1

Other studies, line by line
Species: human
Sample: microsomes or S9
Concentration: 2 µM
Time: 0.5 h
SMILES | remaining compound
CN1CCN(C(=O)Cc2ccc(Br)cc2)CC1 | 92.5%
COc1cc(C2NCc3ccccc3-n3cccc32)ccc1O (centres unmarked) | > 100%
